Measurements pooled from the literature.
Numbered parts are unrelated; each lists some results of a single study. Substitutions count along the parent as printed.

Study 1
Target: FOSB, bZIP domain (human)
Method: DHFR protein complementation
Medium: yeast
Notes: single substitutions, most at no-binding floor
Baseline: wild-type JUN-FOS pair
Direction: higher = stronger binding
Measurement: binding fitness
Parent: JUN, bZIP domain (human); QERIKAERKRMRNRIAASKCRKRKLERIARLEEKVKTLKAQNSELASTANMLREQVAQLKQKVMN; partner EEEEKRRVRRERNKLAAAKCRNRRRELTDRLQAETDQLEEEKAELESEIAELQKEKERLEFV
K39Q: -0.394 natural log
Q41D: -0.399 natural log
E44N: -0.29 natural log
K39M: -0.573 natural log
Q55S: -0.327 natural log
I28D: -0.346 natural log
L31K: -0.646 natural log
A40T: -0.00947 natural log
N42A: -0.582 natural log
K39N: -0.553 natural log
L38F: -0.856 natural log
V35R: -0.195 natural log
M51A: 0.0131 natural log
M51T: 0.00766 natural log
K39A: -0.571 natural log
R53I: -1 natural log
R30I: -0.011 natural log

Study 2
Target: UBE2J2 UBC core domain (UniProt Q8N2K1)
Method: yeast two-hybrid
Medium: yeast
Notes: mostly zero background
Baseline: not given
Direction: higher = stronger interaction
Measurement: lacZ reporter activity
B1: ZMYND11 RING domain (UniProt Q15326); chain DEIDWETENHDWYCFECHLPGEVLICDLCFRVYHSKCLSDEFRLRDSSSPWQCPVCRSIKKKNTNKQEM
B2: ARIH2 RING domain (UniProt O95376); chain HVPTSHPPHHCAVCMQFVRKENLLSLACQHQFCRSCWEQHCSVLVKDGVGVGVSCMAQDCPLRTPEDFVF
B3: TRIM11 RING domain (UniProt Q96F44); chain LSTNLQEEATCAICLDYFTDPVMTDCGHNFCRECIRRCWGQPEGPYACPECRELSPQRNLRP
B4: VPS8 RING domain (UniProt Q8N3P4); chain TRGLNPKQDYCSICLQQYKRRQEMADEIIVFSCGHLYHSFCLQNKECTVEFEGQTRWTCYKCSSSNKVGKLSE
B5: RNF6 RING domain (UniProt Q9Y252); chain NSIDSELGKICSVCISDYVTGNKLRQLPCMHEFHIHCIDRWLSENCTCPICRQPVLGSNIAN
B6: MKRN3 RING domain (UniProt Q13064); chain FAVQRGMDKVCGICMEVVYEKANPNDRRFGILSNCNHSFCIRCIRRWRSARQFENRIVKSCPQCRVTSELVIPSE
B7: RNF103 RING domain (UniProt O00237); chain WPADMLHCTECVVCLENFENGCLLMGLPCGHVFHQNCIVMWLAGGRHCCPVCRWPSYKKKQPY
Residues (chain): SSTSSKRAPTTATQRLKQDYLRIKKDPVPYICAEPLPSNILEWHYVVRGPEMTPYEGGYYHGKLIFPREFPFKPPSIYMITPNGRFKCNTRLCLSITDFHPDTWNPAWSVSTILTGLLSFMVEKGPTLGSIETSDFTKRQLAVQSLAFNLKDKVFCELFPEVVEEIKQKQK
DDVLTKDAGECVICLEELLQGDTIARLPCLCIYHKSCIDSWFEVNRSCPEHPAD (ZNRF1 RING domain (UniProt Q8ND25)): 0
B1 (ZMYND11 RING domain): 0
B2 (ARIH2 RING domain): 0
B3 (TRIM11 RING domain): 0
EIKEYKARLTCPCCNTRKKDAVLTKCFHVFCFECVRGRYEARQRKCPKCNAAFGAHDFHR (RNF40 RING domain (UniProt O75150)): 0
FDPPLESKYECPICLMALREAVQTPCGHRFCKACIIKSIRDAGHKCPVDNEILLENQLFP (TRAF6 RING domain (UniProt Q9Y4K3)): 0
B4 (VPS8 RING domain): 0
LEALSSDFLACKICLEQLRAPKTLPCLHTYCQDCLAQLADGGRVRCPECRETVPVPPEGV (TRIM56 RING domain (UniProt Q9BRZ2)): 0
ASEEEFQFLRCQQCQAEAKCPKLLPCLHTLCSGCLEASGMQCPICQAPWPLGADTP (PML RING domain (UniProt P29590)): 0
B5 (RNF6 RING domain): 0
B6 (MKRN3 RING domain): 0
B7 (RNF103 RING domain): 9890

Study 3
Target: Ras GTPase-activating protein-binding protein 1, full length (G3BP1, Homo sapiens, UniProt Q13283)
UniProt Q13283, sequence (whole entry, looked up): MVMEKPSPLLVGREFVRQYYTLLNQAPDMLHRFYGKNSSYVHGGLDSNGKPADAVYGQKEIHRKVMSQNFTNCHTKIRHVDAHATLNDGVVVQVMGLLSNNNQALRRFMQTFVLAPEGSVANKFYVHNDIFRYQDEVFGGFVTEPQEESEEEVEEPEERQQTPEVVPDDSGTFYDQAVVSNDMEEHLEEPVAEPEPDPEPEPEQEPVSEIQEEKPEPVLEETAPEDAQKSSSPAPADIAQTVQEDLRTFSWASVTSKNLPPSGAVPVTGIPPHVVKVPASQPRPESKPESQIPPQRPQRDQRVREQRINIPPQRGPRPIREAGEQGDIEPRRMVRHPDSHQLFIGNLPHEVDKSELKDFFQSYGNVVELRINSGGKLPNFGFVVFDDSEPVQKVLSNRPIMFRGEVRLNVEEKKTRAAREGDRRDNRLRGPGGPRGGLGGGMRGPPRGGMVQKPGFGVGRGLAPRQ
Method: RNA Bind-n-Seq
Molecule type: RNA
Medium: in vitro
Concentration: 200 nM
Notes: whole 134-nt RNA, ends assumed
With: 150 mM LiCl
Baseline: input library
Direction: higher = stronger binding
Measurement: log2 enrichment
Library: 7-deaza-guanosine replaces G
Constant ends, left off below: GGGAGUUCUACAGUCCGACGAUC … UGGAAUUCUCGGGUGUCAAGG
UGGCCCUGUUGGCAUGCGGGGAGGAAGAGGUGGCCUCAUGGAUCGUGGUGGUCCCGGUGGAAUGUUCAGAGGUGGCCGUGGUGGAGACAG: 0.385
AAAAUGCAGGUGGGCAUCUUUGGGAAGUGGGGCAAGGGGGGGAUAGGGAGGGGGGUAACACUUUGGGAACAGGUGGUCCCAGGUCGUUUC: 0.311
UCAAGUCCUGUGCUACACAUCGUAUGUACCGAAUCGGAGGAAAAAGGUUUUUGGAAAGUAUUAUGUUACGCCGUUCGGAUCUGCACUUCC: -0.386
CAAGUCCUGUGCUACACAUCGUAUGUACCGAAUCGGGGUUUGGGUUUGGGGUUUGGAAAGUAUUAUGUUACGCCGUUCGGAUCUGCACUU: -1.08
UCCUGUGCUACACAUCGUAUGUACCGAAUCAAACCCCCCCAAACCCCCCCAAACCCAAAAAAGUAUUAUGUUACGCCGUUCGGAUCUGCA: 0.366
CCUCAAGUCCUGUGCUACACAUCGUAUGUACCGAAUCGGGGUGGUGGGGUGGGAAAGUAUUAUGUUACGCCGUUCGGAUCUGCACUUCCA: -0.102
AUCAUGCAGGUGGGCAUCUUUGGGAAGUGGGGCAAGGGGGGGAUAGGGAGGGGGGUAACACUUUGGGAACAGGUGGUCCCAGGUCGUUUC: 0.258
GUCCUGUGCUACACAUCGUAUGUACCGAAUCGGCCCCCGGGCCCCCGGGGCCCCCGGGGAAAGUAUUAUGUUACGCCGUUCGGAUCUGCA: -1.97
UGCUUGUGUUUCUGACAGAUUCACUGCCUUCUGAGGACUUGGAUCCUGCCGAUCCCCCGAUCUCGGUAACUGUUGGCCUGAUCUGGCUGU: 0.453
AGUCCUGUGCUACACAUCGUAUGUACCGAAUCGGGUUUUUGGGAAAAAGGGAAAGGGAAAGUAUUAUGUUACGCCGUUCGGAUCUGCACU: -1.77
UCAAGUCCUGUGCUACACAUCGUAUGUACCGAAUCGGGGCCGGGGCCGGGGCCGGAAAGUAUUAUGUUACGCCGUUCGGAUCUGCACUUC: -0.122

Study 4
Target: CCND2, cyclin fold, Cln2 fusion (human)
Method: yeast growth competition, sequencing
Medium: yeast
Notes: weak parent motif
Baseline: not given
Direction: higher = stronger binding
Measurement: normalised enrichment score
Parent: ORC1 docking peptide (human); PRARKRLELGNLG; partner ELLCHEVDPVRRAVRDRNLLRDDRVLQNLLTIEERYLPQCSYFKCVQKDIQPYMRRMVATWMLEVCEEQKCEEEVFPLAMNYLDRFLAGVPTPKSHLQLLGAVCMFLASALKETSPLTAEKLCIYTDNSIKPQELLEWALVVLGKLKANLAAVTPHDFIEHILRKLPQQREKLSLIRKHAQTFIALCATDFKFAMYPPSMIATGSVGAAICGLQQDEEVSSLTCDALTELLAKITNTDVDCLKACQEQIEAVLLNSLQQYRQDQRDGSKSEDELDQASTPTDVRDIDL
G13S: 0.23
E8W: 0.13
E8G: -0.183
K5N: 0.0251
L9T: 0.0594
G10W: 0.458
N11P: 0.338
P1D: 0.708
A3I: -0.0954
E8C: 0.22
N11L: 0.287
E8K: 0.0898
E8N: 0.0452
L12G: 0.0628
G13N: -0.102

Study 5
Target: Interferon regulatory factor 7, full length, phosphomimetic (IRF7, Homo sapiens, UniProt Q92985, residues 1-503, S101K/S471D/S472D/S475D/S476D/S477D/S483D/S484D/S487D)
Method: protein-binding microarray
Molecule type: double-stranded DNA, one strand shown
Medium: in vitro
Concentration: 250 nM
Notes: 60-bp whole probe
With: salmon DNA 0.4 mg/ml
Baseline: random background probes
Direction: higher = stronger binding
Measurement: log fluorescence
Constant ends, left off below: GCCTAGCAC … GTCTTGATTCGCTTGACGCTGCTG
Residues (chain): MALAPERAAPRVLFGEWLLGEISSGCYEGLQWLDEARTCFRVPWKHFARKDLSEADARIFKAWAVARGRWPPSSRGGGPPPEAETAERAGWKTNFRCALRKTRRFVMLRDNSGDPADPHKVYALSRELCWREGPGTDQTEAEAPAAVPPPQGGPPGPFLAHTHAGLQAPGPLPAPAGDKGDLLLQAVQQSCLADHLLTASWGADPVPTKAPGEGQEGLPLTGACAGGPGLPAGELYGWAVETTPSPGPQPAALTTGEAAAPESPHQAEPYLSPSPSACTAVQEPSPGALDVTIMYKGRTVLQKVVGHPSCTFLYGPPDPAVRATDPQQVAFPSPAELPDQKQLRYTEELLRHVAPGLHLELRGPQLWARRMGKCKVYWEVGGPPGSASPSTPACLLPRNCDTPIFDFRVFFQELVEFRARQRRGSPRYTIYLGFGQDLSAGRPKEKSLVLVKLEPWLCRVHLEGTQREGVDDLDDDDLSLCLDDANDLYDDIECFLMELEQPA
CCTTCCATCACTTTCCACTTGTGCTAG: 1.5 z-score
GACAGTTTCCTACTGCTGACGTGCTAG: 1.58 z-score
GACGGTATCAGACTGGAGACGTGCTAG: -0.24 z-score
TTAGGTCTCCATATCCTTTAGTGCTAG: 0.687 z-score
TTAGGTATCGACTTACGGTTAGTGCTA: 2.17 z-score
TTAAGTCTCCTTTTCCTTTAGTGCTAG: 2.1 z-score
TTAGATTTCAGACTGCATTAGTGCTAG: 0.0751 z-score
TTAGAACTGGGGCATCGATTAGTGCTA: -0.447 z-score
ACTAGTGTTTTTCTCCTATTGTGCTAG: 0.176 z-score
TTAGAACTGGGGTTACGATTAGTGCTA: -0.285 z-score
TTAGGTATCCTTTTCATTTAGTGCTAG: 1.47 z-score
TCAGAAATCAACTTTTTTACTGTGCTA: -0.433 z-score
ATCCTTGTCCCTCCGGGAGCGTGCTAG: 0.398 z-score
GACAGTATCGACACTGGGGACGTGCTA: -0.316 z-score
TCAAGTTTCCATTTTCAACTGTGCTAG: 7.59 z-score
TTAGGTCTCGGAGTGGGTTAGTGCTAG: 0.105 z-score
TTAGGACTGCTTCTCCTTGAGTGCTAG: 0.421 z-score
TCATCTTTCCCTGCCCCACTGTGCTAG: 1.39 z-score

Study 6
Target: ABI1, truncated, D143A, DHFR fusion (Arabidopsis thaliana)
Method: DHFR PCA, deep sequencing
Medium: yeast
Notes: methotrexate growth selection, single substitutions
With: (+)-ABA 0.11 µM
Baseline: wild-type fitted maximum
Direction: higher = stronger binding
Measurement: relative binding score
Parent: PYL1, truncated, DHFR fusion (Arabidopsis thaliana); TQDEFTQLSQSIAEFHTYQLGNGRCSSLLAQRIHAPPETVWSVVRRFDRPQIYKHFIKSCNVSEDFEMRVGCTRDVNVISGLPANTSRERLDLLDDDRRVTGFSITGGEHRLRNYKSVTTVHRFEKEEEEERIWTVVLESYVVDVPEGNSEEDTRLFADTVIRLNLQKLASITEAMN; partner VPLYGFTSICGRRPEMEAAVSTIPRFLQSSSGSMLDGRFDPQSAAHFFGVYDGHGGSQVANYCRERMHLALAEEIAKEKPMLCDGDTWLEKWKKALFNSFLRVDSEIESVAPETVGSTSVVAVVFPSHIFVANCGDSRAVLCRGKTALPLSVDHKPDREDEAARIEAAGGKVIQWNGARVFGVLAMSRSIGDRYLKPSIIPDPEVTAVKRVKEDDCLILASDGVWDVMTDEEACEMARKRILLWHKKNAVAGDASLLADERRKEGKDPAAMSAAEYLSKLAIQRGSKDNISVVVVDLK
V121A: 6.82%
R98W: 4.73%
N165T: 5.98%
D65Q: 21.4%
V161W: 73.9%
R49D: -0.465%
D96G: -1.56%
R132M: 40.5%
S80Y: 64.1%
R99V: 1.84%
A30P: 3.45%
T154A: 0.675%
R69E: 31.7%
V137G: 0.962%
I162C: 8.48%

Study 7
Target: Sal-like protein 4, full length isoform A (SALL4, Homo sapiens, UniProt Q9UJQ4, residues 1-1053)
UniProt Q9UJQ4, sequence (whole entry, looked up): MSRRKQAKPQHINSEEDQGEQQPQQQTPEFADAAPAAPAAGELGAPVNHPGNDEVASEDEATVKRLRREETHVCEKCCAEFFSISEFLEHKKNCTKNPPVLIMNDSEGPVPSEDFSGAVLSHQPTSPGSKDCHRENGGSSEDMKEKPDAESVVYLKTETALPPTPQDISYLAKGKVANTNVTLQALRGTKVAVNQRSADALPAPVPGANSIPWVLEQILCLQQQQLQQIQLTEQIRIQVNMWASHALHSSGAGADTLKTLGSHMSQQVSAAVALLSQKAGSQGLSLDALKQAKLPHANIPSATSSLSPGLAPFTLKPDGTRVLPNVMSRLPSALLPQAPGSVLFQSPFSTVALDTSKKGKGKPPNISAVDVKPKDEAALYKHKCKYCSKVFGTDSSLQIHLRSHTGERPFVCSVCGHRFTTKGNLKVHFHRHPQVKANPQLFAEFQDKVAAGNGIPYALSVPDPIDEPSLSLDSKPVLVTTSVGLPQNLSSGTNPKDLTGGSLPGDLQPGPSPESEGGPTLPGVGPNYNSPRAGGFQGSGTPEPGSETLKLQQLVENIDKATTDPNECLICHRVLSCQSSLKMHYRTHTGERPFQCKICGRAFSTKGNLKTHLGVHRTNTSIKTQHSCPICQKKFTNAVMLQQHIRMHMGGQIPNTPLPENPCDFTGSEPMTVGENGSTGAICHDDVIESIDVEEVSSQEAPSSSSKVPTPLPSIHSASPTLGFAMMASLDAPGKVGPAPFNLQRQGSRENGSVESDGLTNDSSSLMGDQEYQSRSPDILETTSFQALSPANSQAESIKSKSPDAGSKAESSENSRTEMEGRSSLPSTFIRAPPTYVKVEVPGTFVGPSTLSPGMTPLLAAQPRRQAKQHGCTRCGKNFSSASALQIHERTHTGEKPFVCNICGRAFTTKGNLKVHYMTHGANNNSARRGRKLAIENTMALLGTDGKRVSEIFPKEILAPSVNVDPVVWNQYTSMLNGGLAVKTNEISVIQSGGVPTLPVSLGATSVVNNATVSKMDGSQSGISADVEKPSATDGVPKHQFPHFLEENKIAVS
Method: universal PBM
Molecule type: double-stranded DNA, one strand shown
Medium: in vitro
Concentration: 600 nM
Notes: 8-mer, flanks averaged, mean of replicates
Direction: higher = stronger binding
Measurement: E-score
CGAGTAAG: -0.0554
AAGCCCGT: -0.325
AACTGAGA: 0.0973
AAGGTCTA: 0.00764
CCTAGTGC: -0.148
ACTCTCTA: 0.126
GCAAGGAC: -0.27
CTTTAAAA: 0.287
CAAATAGC: 0.216
ACACGCGT: -0.0128
AACTCCTC: 0.0379
ATCTAGTA: 0.207
CCGTGCCC: -0.243
CGCACGGC: -0.361
CCCGACCC: -0.415
CACACCAA: 0.0475
AACATAGA: 0.097
AAGAAACA: 0.262
CAAGCATA: 0.149
TGACCACA: 0.0314
AAGGCGGA: -0.149
TAAGATAA: 0.155
AAGAGACG: -0.0255
CAACAGCA: -0.0556
AACAAAAA: 0.349

Repeated from above (study 7):
AAGGTCTA: 0.00764
CCTAGTGC: -0.148
ACTCTCTA: 0.126
GCAAGGAC: -0.27
CTTTAAAA: 0.287
CAAATAGC: 0.216
ACACGCGT: -0.0128
AACTCCTC: 0.0379
ATCTAGTA: 0.207
CCGTGCCC: -0.243
CGCACGGC: -0.361
CCCGACCC: -0.415
CACACCAA: 0.0475
AACATAGA: 0.097
AAGAAACA: 0.262
CAAGCATA: 0.149
TGACCACA: 0.0314
AAGGCGGA: -0.149
